Measured values pooled from the literature.
Each numbered part is a random draw from the data of one study; scales do not carry over between parts.

Set 1
Target: Prothrombin, mature alpha-thrombin (F2, Homo sapiens, UniProt P00734)
Method: aptamer microarray, sandwich
Molecule type: DNA with 2'F-ANA
Medium: in vitro
Concentration: 200 nM
Notes: whole 15-mer aptamer, many near background
Added: Cy3 exosite-II aptamer, 400 nM
Reading: higher = stronger binding
Strand: GGTTGGTGTGGTTGG
| Modification | mean fluorescence intensity [a.u.] |
| --- | --- |
| 2'F-ANA at 2 5 6 7 11 15 | 68.8 |
| 2'F-ANA at 2 5 6 9 10 | 47.8 |
| 2'F-ANA at 4 10 11 12 13 14 15 | 66.3 |
| 2'F-ANA at 2 5 6 14 | 49.7 |
| 2'F-ANA at 1 2 3 5 6 8 9 13 | 86 |
| 2'F-ANA at 1 5 9 10 12 15 | 47.8 |
| 2'F-ANA at 1 2 4 7 10 11 12 15 | 59.6 |
| 2'F-ANA at 2 4 5 6 7 10 14 15 | 265 |
| 2'F-ANA at 1 6 10 12 14 15 | 50 |
| 2'F-ANA at 3 4 6 9 11 14 15 | 232 |
| 2'F-ANA at 1 3 4 5 6 7 | 65.2 |
| 2'F-ANA at 1 2 4 5 6 7 8 14 15 | 49 |
| 2'F-ANA at 1 4 6 8 10 11 13 | 50.3 |
| 2'F-ANA at 1 2 3 6 8 10 | 67.5 |
| 2'F-ANA at 2 4 7 9 10 11 | 208 |
| 2'F-ANA at 2 4 5 8 11 13 | 51.7 |
| 2'F-ANA at 2 3 6 8 11 14 | 362 |
| 2'F-ANA at 1 7 8 9 10 11 14 | 50.8 |

Set 2
Target: Histone acetyltransferase KAT6A, winged helix 1, GST fusion (KAT6A, Homo sapiens, UniProt Q92794, residues 1-85)
Method: protein binding microarray
Molecule type: double-stranded DNA, one strand shown
Medium: in vitro
Concentration: not given
Notes: 8-mer, flanks averaged, mean of 2 arrays, mostly near background
Reference: not given
Reading: higher = stronger binding
Construct (chain): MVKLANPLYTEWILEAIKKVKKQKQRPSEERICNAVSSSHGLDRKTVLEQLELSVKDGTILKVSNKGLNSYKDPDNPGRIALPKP
| Strand | E-score |
| --- | --- |
| AATAGGGG | -0.0604 |
| CTAGAAAC | -0.246 |
| AAGAGCCG | 0.237 |
| CGCCTTCC | 0.145 |
| GCTAGGTA | -0.0287 |
| CCCAGCAG | -0.245 |
| TCAGCGGA | 0.181 |
| GACTCTTA | -0.268 |
| AATTATCT | -0.0687 |
| CTGCTTTA | -0.0715 |
| AGGACTAG | -0.125 |
| CCGCTAAA | 0.26 |
| CAATTATA | -0.111 |
| GCTGCCTA | -0.0525 |
| CGCTCCCC | 0.321 |
| ACAGTTGA | -0.171 |
| GGCAAAAA | 0.0814 |
| GCCATGCA | -0.151 |
| CGTAGTAC | 0.153 |
| AATGCTCT | -0.0572 |

Set 3
Target: RNA binding protein fox-1 homolog 2, RRM domain, GST-SBP tag (RBFOX2, Homo sapiens, UniProt O43251-10, residues 100-194)
Method: RNA Bind-n-Seq
Molecule type: RNA
Medium: in vitro
Concentration: 365 nM
Notes: natural RNA segment, single round, ends assumed
Reference: no-protein control
Reading: higher = stronger binding
Residues (chain): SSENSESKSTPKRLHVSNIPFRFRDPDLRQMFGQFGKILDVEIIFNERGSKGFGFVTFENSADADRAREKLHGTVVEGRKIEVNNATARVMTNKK
| Strand | RBNS enrichment (R) |
| --- | --- |
| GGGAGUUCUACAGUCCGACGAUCCUAAAACUAAAUUUCUUUCAUGUCCUCCCUACUUCCUCAGUGUCAAUCAGAUUAAAGUGUGUAAUCCAUUUUAUGUGUGUAUAGUCUUUUUUGAAACAGCUGCUUAAAAUUGGAAUUCUCGGGUGCCAA | 0.948 |
| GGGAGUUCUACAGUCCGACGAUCAGAUAAUAAUUAGAUAAUACUAUGUAAUUAAUUUUACUCAGUAGAUUAUCAUCUUAAGAGAUGCUUAAACAUGGUAAAUCACUUCAUAUUAUGAAAGUUUUACACUUAGUUGGAAUUCUCGGGUGCCAA | 0.391 |
| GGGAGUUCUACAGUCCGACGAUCCUUUGUUGCUAUCAAUCCAAGAACUUAUUUGUACAUUUUUUUUUUCAAUAAAACUUUUCCAAUGACAUUUUGUUGGAGCGUGGAAGAAGAUUGGAUCAGGAGAUUCUUACUGGAAUUCUCGGGUGCCAA | 0.45 |
| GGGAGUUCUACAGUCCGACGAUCGUACUUUUUCUGGGUUGGCAAUUUGAUGACCACUUUGGUUCAGUCAAAAUGUGUGUACUUUUGGGCCAAAAGCCAGCACUUACACACACACACAUACACAUACACACACAUGGAAUUCUCGGGUGCCAA | 0.522 |
| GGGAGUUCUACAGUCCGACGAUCCCUUGAUGAUUUAUCAGGCAUGAGAGUAGCAGACAGGAUUGCCUUGAGAAACACACAGACAACAACGGUGGUGAACACAUUUCCCUUUCUUGAUACCACCCAGAAAGUCUUGGAAUUCUCGGGUGCCAA | 0.572 |
| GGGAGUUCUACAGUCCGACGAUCCAGAACUAUAAAGAUAAUUAGAGUUAAAAGUUGUUUAAAUUGUGCCCUUAAAUACAGCAGAACCUGGAGAAGGUCAUACUUCAAAGGUCGAUUUUGAGUCCGAAUAAAGAUGGAAUUCUCGGGUGCCAA | 0.304 |
| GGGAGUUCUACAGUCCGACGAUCGAACUGGAGCUGUGUCGGGGCCAGCACAGCUGAACUGUGACAAUGGCAGGAGGUGGCAUGUGCCCAGCACUUCCAUUAAUCUGAGCCUAGGAGUUGAAUUCUUUGGCAAGUGGAAUUCUCGGGUGCCAA | 1.21 |
| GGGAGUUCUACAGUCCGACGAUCAAAACCAAUUGGAACAACUUCGUCCGGUCACUGUGUUGUGCCCCCCCAUGGUUCAAGUGACAGUGGGUGACCUUGUCUGCCAAGAUCUUUCUUUUGAAUGUUUUGAACCCUGGAAUUCUCGGGUGCCAA | 0.309 |
| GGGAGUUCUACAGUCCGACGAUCGGAGUAAUGUUAUAAUAAUAUUUUUAUUAGAAUGUUCUGAUUAUAAAAAAUAAAACUUGUUUUCUUUAAAGAAAAAGGUGGUUUGAGGUUUUUCUCAAUGGCAAGGUGGUUGGAAUUCUCGGGUGCCAA | 0.564 |
| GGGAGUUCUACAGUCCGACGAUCUAUUAGCACACCUUGGUUUUGAGAAAAAAACAGGGCUUUGUUUUUUUAAAUAAUUACUAGCAACUCUGUGACUACAUUUAUUUUUAUUUUUUUUAGAGACAGGAUCUUGCUGGAAUUCUCGGGUGCCAA | 0.566 |
| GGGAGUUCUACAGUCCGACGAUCCCUACGUGAUGUACAUAGAAUAUUAUAGCCUAAAGAUUUUCCAGUUACUUGCGGUCUUUUUAAAUUGAGGAGCCCCACUUCCACUGUCCACCCCUUGUCUUUGUGUGUCAUGGAAUUCUCGGGUGCCAA | 0.763 |
| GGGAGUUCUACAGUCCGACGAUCCUCUUCCUCUCCAGAGCCUUGGGAGAAGGACUUUCCCCGGUUGUACUUAAUUGAUUGGUUGUCCCAAGUGUUGCUCUUACUUGAUUUGCCAAAUGCCUCCUGCUUCUCGUUGGAAUUCUCGGGUGCCAA | 0.786 |

Set 4
Target: Sal-like protein 4, full length isoform B (SALL4, Homo sapiens, UniProt Q9UJQ4-2, residues 1-616)
Method: universal PBM
Molecule type: double-stranded DNA, one strand shown
Medium: in vitro
Concentration: not given
Notes: 8-mer, flanks averaged, mean of replicates
Reading: higher = stronger binding
| Strand | E-score |
| --- | --- |
| ATCGGTGA | 0.026 |
| CATGGTTA | 0.173 |
| ATAGGAGG | -0.0155 |
| GGCCTTGA | -0.189 |
| CACTAACG | 0.0198 |
| CGTGAATC | 0.0366 |
| TAAAACCA | 0.208 |
| ATGCCATC | 0.144 |
| ATGGTAGA | 0.0261 |
| AGCCCGCA | -0.267 |
| ATCGAAAC | -0.0737 |
| CAGACAGA | -0.00554 |
| AACCTTGA | -0.0309 |
| CCCTCCGA | -0.344 |
| TCAAACGA | 0.0734 |
| CGGTCAAA | 0.0499 |
| AATAAATC | 0.244 |
| CCCTTCGA | -0.217 |
| GTGGTGGA | -0.14 |

A few entries again (set 2):
| Strand | E-score |
| --- | --- |
| AAGAGCCG | 0.237 |
| CGTAGTAC | 0.153 |
| CAATTATA | -0.111 |
| CTGCTTTA | -0.0715 |
| CGCCTTCC | 0.145 |
| CCCAGCAG | -0.245 |
| CTAGAAAC | -0.246 |
| AATTATCT | -0.0687 |
| AATGCTCT | -0.0572 |
| GACTCTTA | -0.268 |
| GCTAGGTA | -0.0287 |
